Measurements pooled from the literature.
Protocols differ between the studies behind these lines. ± gives the spread as reported.
Tumor necrosis factor receptor superfamily member 1A extracellular domain: Tumor necrosis factor receptor superfamily member 1A, extracellular domain (Homo sapiens, UniProt P19438)
Chain of UniProt P19438 (whole entry, looked up): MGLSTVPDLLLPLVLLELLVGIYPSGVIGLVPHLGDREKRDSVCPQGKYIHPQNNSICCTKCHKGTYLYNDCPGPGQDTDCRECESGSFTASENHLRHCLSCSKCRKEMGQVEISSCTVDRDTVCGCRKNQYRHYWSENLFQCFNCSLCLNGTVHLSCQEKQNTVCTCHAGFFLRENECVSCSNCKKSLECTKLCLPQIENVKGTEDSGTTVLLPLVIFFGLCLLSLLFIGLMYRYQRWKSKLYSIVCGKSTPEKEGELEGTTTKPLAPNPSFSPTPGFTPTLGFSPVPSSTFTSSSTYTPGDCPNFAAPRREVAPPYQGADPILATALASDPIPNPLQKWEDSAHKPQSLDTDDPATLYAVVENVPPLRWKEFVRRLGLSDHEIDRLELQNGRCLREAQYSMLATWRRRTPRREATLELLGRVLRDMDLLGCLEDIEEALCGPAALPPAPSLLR
HDAC11: Histone deacetylase 11 (HDAC11, Homo sapiens, UniProt Q96DB2)
Chain of UniProt Q96DB2 (whole entry, looked up): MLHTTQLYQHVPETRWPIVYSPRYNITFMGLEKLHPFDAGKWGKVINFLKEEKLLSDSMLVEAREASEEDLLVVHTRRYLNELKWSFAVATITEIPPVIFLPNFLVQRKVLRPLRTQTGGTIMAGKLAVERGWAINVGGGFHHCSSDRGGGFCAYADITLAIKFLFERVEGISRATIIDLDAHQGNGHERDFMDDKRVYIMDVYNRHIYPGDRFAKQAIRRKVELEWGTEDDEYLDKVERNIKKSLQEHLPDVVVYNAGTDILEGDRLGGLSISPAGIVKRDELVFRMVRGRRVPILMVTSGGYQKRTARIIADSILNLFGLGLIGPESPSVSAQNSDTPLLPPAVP
GSPT1/CRBN with cereblon: GSPT1/CRBN, with cereblon (Homo sapiens, UniProt P15170+Q96SW2)
Chain of UniProt Q96SW2 (whole entry, looked up): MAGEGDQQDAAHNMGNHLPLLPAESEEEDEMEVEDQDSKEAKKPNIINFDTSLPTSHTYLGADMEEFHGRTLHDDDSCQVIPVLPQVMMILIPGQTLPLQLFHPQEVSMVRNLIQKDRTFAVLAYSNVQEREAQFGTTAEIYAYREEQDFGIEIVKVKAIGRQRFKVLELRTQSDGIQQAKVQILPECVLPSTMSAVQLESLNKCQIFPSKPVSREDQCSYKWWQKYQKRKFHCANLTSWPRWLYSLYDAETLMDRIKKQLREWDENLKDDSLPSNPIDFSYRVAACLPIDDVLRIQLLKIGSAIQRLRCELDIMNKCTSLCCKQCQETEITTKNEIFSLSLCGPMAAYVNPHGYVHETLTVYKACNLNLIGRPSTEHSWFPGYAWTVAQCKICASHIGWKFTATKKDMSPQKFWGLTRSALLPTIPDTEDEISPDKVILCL
Chain of UniProt P15170 (whole entry, looked up): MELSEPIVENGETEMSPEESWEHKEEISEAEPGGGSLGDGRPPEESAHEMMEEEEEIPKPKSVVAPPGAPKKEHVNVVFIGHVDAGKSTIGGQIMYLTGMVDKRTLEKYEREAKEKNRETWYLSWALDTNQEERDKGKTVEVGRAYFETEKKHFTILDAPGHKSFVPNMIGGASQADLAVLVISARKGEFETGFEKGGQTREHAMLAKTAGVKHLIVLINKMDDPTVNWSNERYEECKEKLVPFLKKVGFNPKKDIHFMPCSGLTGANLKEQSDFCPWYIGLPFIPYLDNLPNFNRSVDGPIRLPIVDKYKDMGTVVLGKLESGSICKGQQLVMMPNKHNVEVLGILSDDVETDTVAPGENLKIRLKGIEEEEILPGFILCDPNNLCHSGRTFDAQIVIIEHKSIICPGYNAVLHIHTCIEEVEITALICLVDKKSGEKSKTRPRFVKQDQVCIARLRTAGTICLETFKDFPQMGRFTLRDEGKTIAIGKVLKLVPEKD
USP5 ZnF-UBD domain: Ubiquitin carboxyl-terminal hydrolase 5, ZnF-UBD domain (USP5, Homo sapiens, UniProt P45974)
Chain of UniProt P45974 (whole entry, looked up): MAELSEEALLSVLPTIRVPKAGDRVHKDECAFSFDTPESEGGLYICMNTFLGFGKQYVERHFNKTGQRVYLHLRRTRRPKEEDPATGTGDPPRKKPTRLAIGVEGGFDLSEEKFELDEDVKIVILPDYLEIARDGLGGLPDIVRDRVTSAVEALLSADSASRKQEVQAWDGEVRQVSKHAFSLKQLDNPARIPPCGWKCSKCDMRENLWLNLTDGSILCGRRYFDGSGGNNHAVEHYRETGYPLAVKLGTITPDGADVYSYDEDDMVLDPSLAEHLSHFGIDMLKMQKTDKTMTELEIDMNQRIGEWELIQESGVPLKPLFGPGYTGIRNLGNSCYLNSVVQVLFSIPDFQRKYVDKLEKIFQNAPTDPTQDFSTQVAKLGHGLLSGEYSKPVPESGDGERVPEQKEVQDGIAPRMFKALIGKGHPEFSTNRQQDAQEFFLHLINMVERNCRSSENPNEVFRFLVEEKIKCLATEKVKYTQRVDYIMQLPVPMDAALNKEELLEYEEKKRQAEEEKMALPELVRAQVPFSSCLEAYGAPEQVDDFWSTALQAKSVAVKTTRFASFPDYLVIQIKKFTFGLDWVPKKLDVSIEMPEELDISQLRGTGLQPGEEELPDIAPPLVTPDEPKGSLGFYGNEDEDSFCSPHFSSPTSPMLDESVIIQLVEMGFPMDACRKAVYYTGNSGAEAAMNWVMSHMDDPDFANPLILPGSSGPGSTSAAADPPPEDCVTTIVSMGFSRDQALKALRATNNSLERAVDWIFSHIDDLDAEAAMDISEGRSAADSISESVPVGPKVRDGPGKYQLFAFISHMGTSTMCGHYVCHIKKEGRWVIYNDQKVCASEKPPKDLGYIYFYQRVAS
PLAU: Urokinase-type plasminogen activator (PLAU, Homo sapiens, UniProt P00749)
GATD3: Glutamine amidotransferase-like class 1 domain-containing protein 3, mitochondrial (GATD3, Homo sapiens, UniProt P0DPI2)
Chain of UniProt P0DPI2 (whole entry, looked up): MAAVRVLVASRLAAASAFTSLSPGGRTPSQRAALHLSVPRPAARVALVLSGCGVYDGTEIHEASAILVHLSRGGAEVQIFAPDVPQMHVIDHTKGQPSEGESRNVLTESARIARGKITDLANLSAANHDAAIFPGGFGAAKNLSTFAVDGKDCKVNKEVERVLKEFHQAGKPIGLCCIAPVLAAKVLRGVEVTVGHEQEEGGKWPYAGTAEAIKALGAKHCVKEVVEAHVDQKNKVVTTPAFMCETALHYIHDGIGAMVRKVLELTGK
Chain of UniProt Q07817 (whole entry, looked up): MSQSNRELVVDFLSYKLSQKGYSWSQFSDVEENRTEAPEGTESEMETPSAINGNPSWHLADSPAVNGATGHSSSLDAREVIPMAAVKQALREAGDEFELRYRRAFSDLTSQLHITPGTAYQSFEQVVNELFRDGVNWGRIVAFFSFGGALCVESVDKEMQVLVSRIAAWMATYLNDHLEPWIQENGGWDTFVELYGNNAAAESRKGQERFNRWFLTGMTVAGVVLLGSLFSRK
Chain of UniProt P41595 (whole entry, looked up): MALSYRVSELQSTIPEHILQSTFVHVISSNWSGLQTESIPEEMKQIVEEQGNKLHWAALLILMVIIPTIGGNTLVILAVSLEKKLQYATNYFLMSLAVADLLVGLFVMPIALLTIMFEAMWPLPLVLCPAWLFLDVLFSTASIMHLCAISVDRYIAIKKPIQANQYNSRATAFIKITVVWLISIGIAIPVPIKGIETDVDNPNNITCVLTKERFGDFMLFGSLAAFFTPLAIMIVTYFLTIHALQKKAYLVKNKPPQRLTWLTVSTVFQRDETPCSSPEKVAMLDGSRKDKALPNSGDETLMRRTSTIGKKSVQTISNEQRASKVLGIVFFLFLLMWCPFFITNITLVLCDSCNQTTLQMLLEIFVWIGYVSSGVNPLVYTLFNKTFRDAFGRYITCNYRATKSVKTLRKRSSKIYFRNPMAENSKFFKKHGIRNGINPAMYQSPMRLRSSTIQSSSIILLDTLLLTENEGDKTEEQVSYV
Chain of UniProt P48729 (whole entry, looked up): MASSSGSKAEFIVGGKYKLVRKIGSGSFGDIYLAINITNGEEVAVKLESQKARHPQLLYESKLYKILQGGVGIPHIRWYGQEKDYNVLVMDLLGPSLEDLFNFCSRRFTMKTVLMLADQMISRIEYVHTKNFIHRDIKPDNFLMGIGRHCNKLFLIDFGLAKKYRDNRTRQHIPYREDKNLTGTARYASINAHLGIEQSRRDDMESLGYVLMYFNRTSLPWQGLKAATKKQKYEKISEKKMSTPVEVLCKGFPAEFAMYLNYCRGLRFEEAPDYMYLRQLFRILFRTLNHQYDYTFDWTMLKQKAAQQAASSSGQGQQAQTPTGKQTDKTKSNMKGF
Chain of UniProt Q13523 (whole entry, looked up): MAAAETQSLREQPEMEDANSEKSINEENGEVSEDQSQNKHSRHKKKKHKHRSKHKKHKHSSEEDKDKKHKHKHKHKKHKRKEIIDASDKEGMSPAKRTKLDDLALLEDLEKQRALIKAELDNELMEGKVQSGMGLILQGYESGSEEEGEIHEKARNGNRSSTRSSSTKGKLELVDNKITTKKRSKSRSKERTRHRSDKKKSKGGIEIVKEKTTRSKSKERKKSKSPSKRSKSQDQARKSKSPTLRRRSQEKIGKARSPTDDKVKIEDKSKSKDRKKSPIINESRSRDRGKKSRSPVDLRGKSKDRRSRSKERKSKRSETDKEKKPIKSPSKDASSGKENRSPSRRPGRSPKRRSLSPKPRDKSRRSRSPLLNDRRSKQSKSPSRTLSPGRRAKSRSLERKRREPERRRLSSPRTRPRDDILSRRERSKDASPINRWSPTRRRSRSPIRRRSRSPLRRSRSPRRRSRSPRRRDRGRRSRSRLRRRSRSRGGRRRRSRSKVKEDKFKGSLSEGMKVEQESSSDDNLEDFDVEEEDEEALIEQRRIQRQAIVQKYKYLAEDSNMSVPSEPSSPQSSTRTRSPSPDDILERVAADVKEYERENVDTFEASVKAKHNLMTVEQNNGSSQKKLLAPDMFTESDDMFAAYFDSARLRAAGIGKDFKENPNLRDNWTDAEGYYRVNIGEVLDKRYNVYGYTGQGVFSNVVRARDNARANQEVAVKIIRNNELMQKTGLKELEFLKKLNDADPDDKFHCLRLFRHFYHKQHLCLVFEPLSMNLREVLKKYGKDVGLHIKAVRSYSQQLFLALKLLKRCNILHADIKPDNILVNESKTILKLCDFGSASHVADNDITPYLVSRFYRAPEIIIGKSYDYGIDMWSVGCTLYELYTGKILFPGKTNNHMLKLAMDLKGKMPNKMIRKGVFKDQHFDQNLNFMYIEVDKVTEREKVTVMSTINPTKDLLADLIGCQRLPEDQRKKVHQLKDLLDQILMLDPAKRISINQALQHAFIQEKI

Compound	target	assay	system	setting	how to read	quantity	value
O=C1CCC(N2Cc3cc(Nc4noc5ccccc45)ccc3C2=O)C(=O)N1 (stereo not drawn)	Cereblon/Casein kinase I alpha (CSNK1A1/CRBN, Homo sapiens, UniProt P48729+Q96SW2)	degrader, HiBiT endpoint	human cells	24 h	–	DC50	0.002 µM
COc1ccc(OC)c(-c2ccnc(C(=O)O)c2)c1	Tumor necrosis factor receptor superfamily member 1A extracellular domain	SPR OneStep	–	immobilized target	–	Kd	1220 ± 20 µM
Cc1c(OS(=O)(=O)Oc2cccc(C(C)C)c2)cccc1C(=O)NO	HDAC11	–	–	–	–	Ki	0.714 µM
Cc1ccc(C(=O)Nc2ccc3c(c2)CN(C2CCC(=O)NC2=O)C3=O)cc1 (stereo not drawn)	GSPT1/CRBN with cereblon	degrader, HiBiT endpoint	HEK293 GSPT1-HiBiT	24 h	–	DC50	> 10 µM
O=C(O)CCc1cn2cccnc2n1	USP5 ZnF-UBD domain	–	–	–	–	Kd	> 1000 µM
OC[C@H]1N/C(=N\CC2CCCCC2)[C@H](O)[C@@H](O)[C@H]1O	β-glucosidase sweet almond	enzyme activity, inhibitor	–	pH 5.00	–	Ki	0.0492 ± 0.0099 µM
N#Cc1c2n(c3c(=O)n(CC(=O)O)cnc13)CCCC2	USP5 ZnF-UBD domain	–	–	–	–	Kd	207 µM
COc1cc(/C=N/n2c(C)nc3ccc(C)cc3c2=O)ccc1OCc1ccccc1	collagenase	enzyme activity, inhibitor	–	added: casein substrate	–	IC50	53.5 ± 3.07 µg/mL
COc1cc[nH]c1/C=C1\C(=O)Nc2ccc([N+](=O)[O-])c(N3CC[C@@H](O)C3)c21	CMGC kinases (CDK, CLK, DYRK, GSK, SRPK)	enzyme activity, KinaseProfiler	–	1 µM	relative to: DMSO	remaining activity	< 10%
N=C(N)c1ccc2ccccc2c1	PLAU	inhibitor	–	pH 7.4	–	Ki	5.91 µM
COc1ccc(-c2nc(N3CCOCC3)c3sc(CN(C)c4ncc(C(=O)NO)cn4)cc3n2)cn1	GATD3	inhibitor, competition pulldown	SW620 and MV4-11 lysate	1 h	–	Kd	> 30.2 µM
O=C(O)Cn1cnc2c(oc3ccccc32)c1=O	USP5 ZnF-UBD domain	–	–	–	–	Kd	312 µM
CN(CC#N)C(=O)c1ccc2ccc(N)nc2c1	PLAU	inhibitor	–	pH 7.4	–	Ki	> 100 µM
O=C(O)c1cc(-c2ccc3occc3c2)ccn1	Tumor necrosis factor receptor superfamily member 1A extracellular domain	SPR OneStep	–	immobilized target	–	Kd	540 ± 119 µM
CN1CCc2c(c3ccccc3n2Cc2ccc(C(=O)NO)cc2)C1	GATD3	inhibitor, competition pulldown	SW620 and MV4-11 lysate	1 h	–	Kd	> 30.2 µM
O=C1CCC(N2Cc3cc(NC(=O)c4cccc(F)c4)ccc3C2=O)C(=O)N1 (stereo not drawn)	GSPT1/CRBN with cereblon	degrader, HiBiT endpoint	HEK293 GSPT1-HiBiT	24 h	–	DC50	> 10 µM
O=C(O)CCN1C(=O)c2ccccc2S1(=O)=O	USP5 ZnF-UBD domain	–	–	–	–	Kd	> 1000 µM
COc1cc(NCC(=O)Nn2c(C)nc3ccc(Cl)cc3c2=O)cc(OC)c1OC	collagenase	enzyme activity, inhibitor	–	added: casein substrate	–	IC50	34 ± 2.83 µg/mL
O=C1CCC(N2Cc3cc(Nc4noc5cc(F)ccc45)ccc3C2=O)C(=O)N1 (stereo not drawn)	GSPT1/CRBN with cereblon	degrader, HiBiT endpoint	HEK293 GSPT1-HiBiT	24 h	–	DC50	> 10 µM
CC[C@@H]1[C@H](F)C(=O)N[C@@H]1COc1nccc2cc(C(N)=O)c(OC)cc12	PRPF4B (Homo sapiens, UniProt Q13523)	ATP-site probe binding, ActivX profiling	THP-1 cell lysate	Lys2 site	–	IC50	0.65 µM

Compound	target	assay	system	setting	how to read	quantity	value
O=C(O)CCc1nccs1	USP5 ZnF-UBD domain	–	–	–	–	Kd	> 1000 µM
CCOc1cc(OCC)c(OCC)cc1/C=C/c1cc(Br)c2cc(C(=N)N)ccc2c1	PLAU	inhibitor	–	pH 7.4	–	Ki	0.777 µM
Cc1cc(OS(=O)(=O)Oc2ccc(C(C)(C)C)cc2)cc(C(=O)NO)c1	HDAC11	–	–	–	–	Ki	1.38 µM
O=c1nc(N2CCN(CC3CCCCC3)CC2)sc2c([N+](=O)[O-])cc(C(F)(F)F)cc12	Cytochrome P450 1A2 (CYP1A2, Homo sapiens, UniProt P05177)	–	–	pH 7.4	–	IC50	> 10 µM
COc1cc(/C=N/n2c(C)nc3ccc(Br)cc3c2=O)ccc1O	collagenase	enzyme activity, inhibitor	–	added: casein substrate	–	IC50	18 ± 1.41 µg/mL
Cc1ncsc1-c1ccc([C@H](C)NC(=O)[C@@H]2C[C@@H](O)CN2C(=O)[C@@H](NC(=O)CCCCCCCS(=O)(=O)NC(=O)c2nc(N3CCc4cccc(C(=O)Nc5nc6ccccc6s5)c4C3)ccc2-c2cnn(CC34CC5CC(CC(C5)C3)C4)c2C)C(C)(C)C)cc1	BCL2L1 (Homo sapiens, UniProt Q07817)	degrader, western blot	MOLT-4	16 h	–	DC50	0.00043 µM
O=C(O)CNc1ncnc2ccccc12	USP5 ZnF-UBD domain	–	–	–	–	Kd	> 1000 µM
COC(=O)Nc1ccc2nc(N)ccc2c1	PLAU	inhibitor	–	pH 7.4	–	Ki	> 50 µM
O=C1CCC(N2Cc3cc(NC(=O)c4ccccc4)ccc3C2=O)C(=O)N1 (stereo not drawn)	GSPT1/CRBN with cereblon	degrader, HiBiT endpoint	HEK293 GSPT1-HiBiT	24 h	–	DC50	> 10 µM
O=C(O)COc1cnc2ccccc2n1	USP5 ZnF-UBD domain	–	–	–	–	Kd	> 1000 µM
Cn1nc(Nc2ccc3c(c2)CN(C2CCC(=O)NC2=O)C3=O)c2ccccc21 (stereo not drawn)	GSPT1/CRBN with cereblon	degrader, HiBiT endpoint	HEK293 GSPT1-HiBiT	24 h	–	DC50	> 10 µM
N#C[C@@]12C[C@@H]1[C@@H](n1cnc3c(NC4CCCC4)nc(I)nc31)[C@H](O)[C@@H]2O	HTR2B (Homo sapiens, UniProt P41595)	antagonist, Gq dissociation BRET	–	human receptor	–	Kb	0.00893 µM
O=C(O)CNc1ncccn1	USP5 ZnF-UBD domain	–	–	–	–	Kd	> 1000 µM
COc1cc(/C=N/n2c(C)nc3ccc(Br)cc3c2=O)ccc1OCc1ccc(Cl)cc1	collagenase	enzyme activity, inhibitor	–	added: casein substrate	–	IC50	32.5 ± 2.12 µg/mL
COc1cc(NC(=O)c2ccc3cc(C(=N)N)ccc3c2)cc(OC(C)C)c1	PLAU	inhibitor	–	pH 7.4	–	Ki	0.033 µM
Cc1nc2ccccc2c(=O)n1NC(=O)CSc1nc2ccccc2c(=O)n1-c1ccccc1	collagenase	enzyme activity, inhibitor	–	added: casein substrate	–	IC50	28.5 ± 2.12 µg/mL
Cc1c(OS(=O)(=O)Oc2ccc(C(C)(C)C)cc2)cccc1C(=O)NO	HDAC11	–	–	–	–	Ki	0.581 µM
Nc1cnc2ccccc2n1	PLAU	inhibitor	–	pH 7.4	–	Ki	> 50 µM
NCc1cc2c(cc1F)C(=O)N(C1CCC(=O)NC1=O)C2 (stereo not drawn)	GSPT1/CRBN (Homo sapiens, UniProt P15170+Q96SW2)	degrader, Western blot	Hep3B	24 h	–	DC50	0.001 µM

Repeated from above:
Compound	target	assay	system	setting	how to read	quantity	value
CN(CC#N)C(=O)c1ccc2ccc(N)nc2c1	PLAU	inhibitor	–	pH 7.4	–	Ki	> 100 µM
O=C(O)c1cc(-c2ccc3occc3c2)ccn1	Tumor necrosis factor receptor superfamily member 1A extracellular domain	SPR OneStep	–	immobilized target	–	Kd	540 ± 119 µM
CN1CCc2c(c3ccccc3n2Cc2ccc(C(=O)NO)cc2)C1	GATD3	inhibitor, competition pulldown	SW620 and MV4-11 lysate	1 h	–	Kd	> 30.2 µM
O=C1CCC(N2Cc3cc(NC(=O)c4cccc(F)c4)ccc3C2=O)C(=O)N1 (stereo not drawn)	GSPT1/CRBN with cereblon	degrader, HiBiT endpoint	HEK293 GSPT1-HiBiT	24 h	–	DC50	> 10 µM
O=C(O)CCN1C(=O)c2ccccc2S1(=O)=O	USP5 ZnF-UBD domain	–	–	–	–	Kd	> 1000 µM
COc1cc(NCC(=O)Nn2c(C)nc3ccc(Cl)cc3c2=O)cc(OC)c1OC	collagenase	enzyme activity, inhibitor	–	added: casein substrate	–	IC50	34 ± 2.83 µg/mL
